Assay results collected from several papers.
A part holds a random share of what one study measured.

Study 1
Target: Myc proto-oncogene protein, bHLH-zipper, MAX partner unstated (MYC, Homo sapiens, UniProt P01106, residues 368-449)
Chain of UniProt P01106 (368-449, looked up): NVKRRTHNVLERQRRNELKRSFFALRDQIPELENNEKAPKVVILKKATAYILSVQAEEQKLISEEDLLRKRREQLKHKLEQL
Method: protein-binding microarray
Molecule type: double-stranded DNA, one strand shown
Matrix: in vitro
Concentration: not given
Setting: k-mer, scored over probes, only values ≥0.25
Direction: higher = stronger binding
| Strand | E-score |
| --- | --- |
| CGTGCACC | 0.366 |
| AACTCGTG | 0.382 |
| CGCGTTGC | 0.295 |
| CCCACACC | 0.307 |
| GCCCACAC | 0.27 |
| CTGCGTGC | 0.307 |
| TGCCCGCA | 0.273 |
| GACCATGC | 0.458 |
| CATGGCCC | 0.416 |
| ATGCGTGA | 0.318 |
| GCCTACAC | 0.276 |

Study 2
Target: Histone acetyltransferase KAT6A, both winged helices, GST fusion (KAT6A, Homo sapiens, UniProt Q92794, residues 1-181)
Method: protein binding microarray
Molecule type: double-stranded DNA, one strand shown
Matrix: in vitro
Concentration: not given
Setting: 8-mer, flanks averaged, mean of 2 arrays, mostly near background
Baseline: not given
Direction: higher = stronger binding
Target sequence (chain): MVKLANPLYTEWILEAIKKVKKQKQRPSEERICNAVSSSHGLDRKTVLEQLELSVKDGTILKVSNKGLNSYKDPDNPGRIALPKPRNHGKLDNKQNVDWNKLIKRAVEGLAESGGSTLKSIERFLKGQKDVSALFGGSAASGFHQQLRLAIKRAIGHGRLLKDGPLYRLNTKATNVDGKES
| Strand | E-score |
| --- | --- |
| TTGTGAAA | -0.0269 |
| TAGTTAAA | 0.0752 |
| CAGATCCG | 0.139 |
| GTCTCCAA | -0.0253 |
| AGGGGGAG | -0.314 |
| CTAAACCA | 0.0224 |
| AAATTTAC | -0.00591 |
| CCTATCCA | -0.235 |
| CAGTTGTA | 0.0877 |
| GCTGCAGC | 0.159 |
| ACGCGACA | 0.258 |
| CCGCCAAC | 0.149 |
| CGTCTAAA | 0.0043 |
| ATTTCGCG | 0.281 |
| AACGTGGC | -0.0467 |
| AGAGTGGC | -0.117 |
| GGCCAATA | 0.0389 |

Study 3
Target: Interferon regulatory factor 3, full length, phosphomimetic (IRF3, Homo sapiens, UniProt Q14653, residues 1-427, S386D/S396D/S398D/S402D/T404D/S405D)
Method: protein-binding microarray
Molecule type: double-stranded DNA, one strand shown
Matrix: in vitro
Concentration: 2540 nM top
Setting: 60-bp whole probe
With: salmon DNA 0.4 mg/ml
Baseline: random background probes
Direction: higher = stronger binding
Constant ends, left off below: GCCTAGCAC … GTGCTAGGTCTTGATTCGCTTGACGCTGCTG
Target sequence (chain): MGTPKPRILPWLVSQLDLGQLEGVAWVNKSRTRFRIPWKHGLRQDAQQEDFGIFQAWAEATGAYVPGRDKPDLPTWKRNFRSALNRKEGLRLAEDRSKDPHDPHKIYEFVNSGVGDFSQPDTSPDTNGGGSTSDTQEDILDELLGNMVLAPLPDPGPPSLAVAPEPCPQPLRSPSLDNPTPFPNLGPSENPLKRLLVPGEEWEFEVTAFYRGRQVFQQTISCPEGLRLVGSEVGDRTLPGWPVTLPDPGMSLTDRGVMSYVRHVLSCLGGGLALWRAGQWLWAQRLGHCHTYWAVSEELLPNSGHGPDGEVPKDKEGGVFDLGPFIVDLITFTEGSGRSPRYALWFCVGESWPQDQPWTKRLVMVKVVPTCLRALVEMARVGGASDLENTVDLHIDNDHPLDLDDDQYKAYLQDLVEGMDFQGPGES
| Strand | fitted relative affinity |
| --- | --- |
| GACGGACTGCTTTTCCGGAC | 0.302 z-score |
| GCCGGTTTCGGTCTCGGGAC | 8.55 z-score |
| TGAGGTCTCCTTCTCCTTTA | 3.7 z-score |
| GCAGATTGGGTTTCAGGGCT | 0.404 z-score |
| TTAGGTTTCCTTCTCCTTCA | 10.4 z-score |
| TTAGGTCTCCTTTTCATTTA | 4.86 z-score |
| GACGGACTGCTTTTCCTGAG | -0.254 z-score |
| TCAGATTGGTTGAACATACT | 0.183 z-score |
| GACGGCCTGGGTATCGGGAC | -0.633 z-score |
| GTCGATATCAGTTTCGAGAC | 4.31 z-score |
| TTGTGTTTGTCCCTATTTAA | 0.606 z-score |
| TTAGGACTGCCTTTCCTTTA | 0.575 z-score |
| GGTCCCACCTCTTGGTGGGA | 1.35 z-score |
| CTCGGGACAGGCACTCTACG | -0.873 z-score |
| GGGTTCAAGAAGTAGGAGAA | -0.343 z-score |
| TTAGTTATCGGTTTCGGTTA | 6.44 z-score |

Mixed results
| Sequence | target | test | test system | scale | endpoint | value |
| --- | --- | --- | --- | --- | --- | --- |
| PPVKRRLDLETDH | human cyclin B1 | cyclin docking binding, deep mutational scanning | peptide, yeast cyclin B1-Cln2 system | direction not given | score relative, wild type, peptide | 0 |

Repeated from above (study 1):
| Strand | E-score |
| --- | --- |
| GCCCACAC | 0.27 |
| CTGCGTGC | 0.307 |
